Published values of several laboratories.
Each numbered part is a random draw from the data of one study; scales do not carry over between parts. Changes are numbered by the printed parent chain.

Block 1
Target: PABPC1L2, full length, GST fusion (mouse, UniProt A0ABA7IW68)
Technique: RNAcompete
Form: RNA
Matrix: in vitro
Concentration: 20 nM
Notes: 7-mer, probes averaged, single round
Baseline: mean of 7-mers
Direction: higher = stronger binding
Residues (chain): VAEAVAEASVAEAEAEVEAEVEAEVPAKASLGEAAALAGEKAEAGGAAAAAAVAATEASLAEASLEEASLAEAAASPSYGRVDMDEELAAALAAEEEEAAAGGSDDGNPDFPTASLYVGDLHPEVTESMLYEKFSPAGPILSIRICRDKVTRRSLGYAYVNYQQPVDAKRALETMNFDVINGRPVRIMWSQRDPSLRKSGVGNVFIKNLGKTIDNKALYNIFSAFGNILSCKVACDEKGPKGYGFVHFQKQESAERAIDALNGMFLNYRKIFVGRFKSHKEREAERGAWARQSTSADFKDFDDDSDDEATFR
| Strand | 7-mer Z-score |
| --- | --- |
| UGUAGCG | -0.079 |
| UAUGGGU | -0.0246 |
| CAAUUCG | -0.15 |
| GUCACAU | -0.128 |
| UAGACCC | -0.11 |
| UGACGGC | -0.0138 |
| UUUAUUA | -0.0935 |
| UCCGACG | -0.286 |
| UUCAAUG | -0.195 |
| GUUAGCA | -0.166 |
| UCCGAAU | -0.151 |
| UUGCCGA | -0.197 |
| UGUCUUA | -0.427 |
| CGACGCA | -0.0627 |
| UGUUUGA | -0.496 |
| AGAUCGC | -0.391 |
| UGCCUGA | -0.133 |
| AGCCUCU | -0.414 |
| GAGUGUA | 0.111 |
| GUCGGUA | -0.00833 |
| GGGCUCC | -0.0264 |
| UAACGCA | -0.0283 |
| UGUACCG | -0.257 |

Block 2
Target: RNA binding protein fox-1 homolog 2, RRM domain, GST-SBP tag (RBFOX2, Homo sapiens, UniProt O43251-10, residues 100-194)
Technique: RNA Bind-n-Seq
Form: RNA
Matrix: in vitro
Concentration: 365 nM
Notes: natural RNA segment, single round, ends assumed
Baseline: no-protein control
Direction: higher = stronger binding
All sequences stand within: GGGAGUUCUACAGUCCGACGAUC … UGGAAUUCUCGGGUGCCAA
Residues (chain): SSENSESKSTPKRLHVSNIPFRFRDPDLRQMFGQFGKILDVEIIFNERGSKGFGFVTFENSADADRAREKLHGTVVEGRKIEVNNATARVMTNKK
| Strand | RBNS enrichment (R) |
| --- | --- |
| CCAAAUAACUGCUGGCUAGUUGGGGCUUUGUUUUGGUCUAGUGAAUAAAUACUGGUGUAUCCCCUGACUUGUACCCAGAGUACAAGGUGACAGUGACACAUGUAACUUAG | 0.32 |
| UGUUCAUCUGUGGGUCAUCGAGGCUGGAGCAGUUCCUGCUGAGUCAGGCUCUGUCCUAGAGUGGGCAGUCCUGAUGCAGGGCUCAGCAGGAGCCUAGUGCAGGGUGAACA | 0.48 |
| UUUGAACCCAGCUGCUCUGUACUGCACUUAAAUGAUGUAAUAUUCCAGGAUGCUGCUGCAGGUGGCGUAUCAUCGUACACACUCAGUGACAUUUCUAUCACAAUCAUUUU | 0.333 |
| UAAGAACUCUGUAAUAGAAUGUCAUUGUGGAUGUUACCUUUUUCAGAUCCAAGCAUAUAAAAAGCCUGUAUAUUUUUUAAAAACACAUCUUAACUCCACGCUUUACGAUA | 1.37 |
| CUGCAGAUGAAUGGUCAACGCGAGCUAGGUUAGUUAGUGUGAUGUAUAAGGCGCCAUCAUUCCUCAAGUCAAGCCUCCAUCCCAAAGCACCUGGAGCUGUGGCAAUGAUG | 0.736 |
| CCCUUCUAAUGAAUGAAACUAGGGGAAUUUCAGGGGACAGAGAUGGGAUUUGUUGUAUGAUAAACUGUAUGUAGUUUUUAGUCUUUCUGUUUUGAGAAGCAGUGGUUGGG | 63 |
| AUAUUUCUGUCCCAUCAGGAAAACUGAAGGAUAUGGGGAAUCAUUGGUUAUCUUCCAUUGUGUUUUUCUUUAUGGACAGGAGCUAAUGGAAGUGACAGUCAUGUUCAAAG | 0.372 |
| CGCUAAGGGGACACCCCUUCCCCAGGUCUUUUAUUUGUUUAAGUUAUUUUUGCACAAAUGACUCUUUUAUAUUUAAUUCGACUUCAUUGCCUCCCUUCUUAAAGCUAGCA | 2.33 |

Block 3
Target: Histone acetyltransferase KAT6A, both winged helices, GST fusion (KAT6A, Homo sapiens, UniProt Q92794, residues 1-181)
Technique: protein binding microarray
Form: double-stranded DNA, one strand shown
Matrix: in vitro
Concentration: not given
Notes: 8-mer, flanks averaged, mean of 2 arrays, mostly near background
Baseline: not given
Direction: higher = stronger binding
Construct (chain): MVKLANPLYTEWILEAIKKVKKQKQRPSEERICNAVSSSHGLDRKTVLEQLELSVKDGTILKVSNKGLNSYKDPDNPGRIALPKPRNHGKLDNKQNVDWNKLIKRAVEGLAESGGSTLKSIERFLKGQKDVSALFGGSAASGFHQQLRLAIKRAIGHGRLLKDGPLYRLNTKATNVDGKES
| Strand | E-score |
| --- | --- |
| AACATAGG | -0.0481 |
| AGTGCTTA | -0.137 |
| GGTTCTTA | -0.00178 |
| AACCACAC | -0.0437 |
| AGCGGACA | 0.237 |
| ACGTGAAC | 0.00513 |
| AATATATT | -0.00235 |
| CCTGAGCC | -0.048 |
| CAACATCC | 0.0342 |
| CGCCCACC | -0.141 |
| GTACAACA | 0.0467 |
| GCAAATAA | 0.0069 |
| ACAATGCA | -0.0605 |
| ATTTTAAA | -0.0878 |
| CCCTGTAC | -0.152 |
| GTAACTAC | -0.0284 |

Block 4
Target: CREB3, bZIP domain (human)
Technique: DHFR protein complementation
Matrix: yeast
Notes: single substitutions, most at no-binding floor
Baseline: wild-type JUN-FOS pair
Direction: higher = stronger binding
Parent: JUN, bZIP domain (human); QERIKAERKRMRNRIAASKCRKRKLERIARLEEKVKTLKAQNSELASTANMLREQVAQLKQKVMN; partner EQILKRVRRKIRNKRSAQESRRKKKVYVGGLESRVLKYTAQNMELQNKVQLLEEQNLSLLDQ
| Substitution | binding fitness |
| --- | --- |
| R30Y | -1.42 natural log |
| V35C | -1.44 natural log |
| A46Q | -1.28 natural log |
| R53D | -1.56 natural log |
| T37L | -1.47 natural log |
| Q55L | -1.3 natural log |
| K36E | -1.52 natural log |
| E44S | -1.42 natural log |
| T48G | -1.47 natural log |
| S47R | -1.43 natural log |
| Q41R | -1.46 natural log |
| V56S | -1.57 natural log |
| K34N | -1.49 natural log |
| E32V | -1.46 natural log |
| N42Q | -1.44 natural log |
| E33T | -1.29 natural log |
| S47A | -1.34 natural log |
| S43C | -1.57 natural log |
| E54T | -1.53 natural log |
| A46P | -1.56 natural log |
| A40G | -1.47 natural log |
| I28F | -1.37 natural log |

A few entries again (block 1):
| Strand | 7-mer Z-score |
| --- | --- |
| UUGCCGA | -0.197 |
| UGUCUUA | -0.427 |
| CGACGCA | -0.0627 |
| UGUUUGA | -0.496 |
| AGAUCGC | -0.391 |
| UGCCUGA | -0.133 |
| AGCCUCU | -0.414 |
| GAGUGUA | 0.111 |
| GUCGGUA | -0.00833 |
